Measurements gathered from unrelated publications.
Parts stem from different laboratories: compare values within a part only. Several values in a cell are separate wells, animals, samples, runs or records.
UniProt Q8N752, sequence (whole entry, looked up): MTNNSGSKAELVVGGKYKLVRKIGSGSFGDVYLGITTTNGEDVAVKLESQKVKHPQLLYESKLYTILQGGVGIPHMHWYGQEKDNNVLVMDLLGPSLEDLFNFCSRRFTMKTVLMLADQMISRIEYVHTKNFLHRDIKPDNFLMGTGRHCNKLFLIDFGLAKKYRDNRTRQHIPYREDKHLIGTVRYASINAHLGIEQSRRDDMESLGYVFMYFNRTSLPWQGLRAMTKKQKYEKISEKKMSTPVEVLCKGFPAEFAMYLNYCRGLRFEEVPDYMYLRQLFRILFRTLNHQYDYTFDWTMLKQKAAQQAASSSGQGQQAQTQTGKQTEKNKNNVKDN
UniProt P07949, sequence (whole entry, unmodified, looked up): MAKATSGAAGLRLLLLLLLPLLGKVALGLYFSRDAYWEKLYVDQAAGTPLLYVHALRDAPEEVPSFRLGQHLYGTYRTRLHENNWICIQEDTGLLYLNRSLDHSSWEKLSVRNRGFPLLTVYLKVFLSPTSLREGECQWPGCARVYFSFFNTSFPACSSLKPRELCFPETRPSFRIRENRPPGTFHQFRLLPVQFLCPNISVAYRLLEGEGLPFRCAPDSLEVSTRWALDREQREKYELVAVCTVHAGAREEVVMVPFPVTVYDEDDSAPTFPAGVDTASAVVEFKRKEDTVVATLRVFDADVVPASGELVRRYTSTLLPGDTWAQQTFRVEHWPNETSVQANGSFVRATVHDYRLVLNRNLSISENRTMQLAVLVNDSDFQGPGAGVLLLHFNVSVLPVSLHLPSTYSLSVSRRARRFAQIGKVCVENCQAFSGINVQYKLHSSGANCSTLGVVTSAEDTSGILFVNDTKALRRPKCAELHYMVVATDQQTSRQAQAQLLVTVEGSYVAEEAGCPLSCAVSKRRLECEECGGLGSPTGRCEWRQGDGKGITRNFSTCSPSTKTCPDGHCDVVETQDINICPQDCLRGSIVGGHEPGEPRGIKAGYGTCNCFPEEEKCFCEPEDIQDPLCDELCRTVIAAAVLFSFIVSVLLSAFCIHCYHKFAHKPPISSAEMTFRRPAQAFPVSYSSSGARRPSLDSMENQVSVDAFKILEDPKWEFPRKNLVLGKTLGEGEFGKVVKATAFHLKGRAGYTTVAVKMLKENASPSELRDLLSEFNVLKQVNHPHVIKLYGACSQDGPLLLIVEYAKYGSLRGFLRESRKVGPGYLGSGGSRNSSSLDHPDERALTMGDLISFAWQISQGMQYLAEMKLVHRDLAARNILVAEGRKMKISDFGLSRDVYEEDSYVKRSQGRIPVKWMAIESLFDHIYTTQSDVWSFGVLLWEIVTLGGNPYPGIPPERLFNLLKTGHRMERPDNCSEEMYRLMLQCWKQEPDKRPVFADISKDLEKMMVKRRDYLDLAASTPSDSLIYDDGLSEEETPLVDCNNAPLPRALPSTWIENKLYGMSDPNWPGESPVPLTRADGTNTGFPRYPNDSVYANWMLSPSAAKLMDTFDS
UniProt O15530, sequence (whole entry, looked up): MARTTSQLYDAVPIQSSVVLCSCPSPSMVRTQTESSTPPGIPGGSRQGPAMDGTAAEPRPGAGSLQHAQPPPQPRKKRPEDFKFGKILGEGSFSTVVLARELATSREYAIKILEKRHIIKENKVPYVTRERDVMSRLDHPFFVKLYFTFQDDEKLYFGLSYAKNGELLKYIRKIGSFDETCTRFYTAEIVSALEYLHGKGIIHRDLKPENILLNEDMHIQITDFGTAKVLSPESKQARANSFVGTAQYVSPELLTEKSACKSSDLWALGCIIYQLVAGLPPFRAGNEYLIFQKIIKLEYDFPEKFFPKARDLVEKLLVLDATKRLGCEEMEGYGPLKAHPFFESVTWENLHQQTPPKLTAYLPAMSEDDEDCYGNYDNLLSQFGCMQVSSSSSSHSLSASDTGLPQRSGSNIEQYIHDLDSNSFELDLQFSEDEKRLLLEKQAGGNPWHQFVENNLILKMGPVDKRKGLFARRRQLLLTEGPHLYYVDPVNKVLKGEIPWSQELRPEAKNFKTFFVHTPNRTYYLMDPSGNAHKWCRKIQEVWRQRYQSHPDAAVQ
UniProt P45983, sequence (whole entry, looked up): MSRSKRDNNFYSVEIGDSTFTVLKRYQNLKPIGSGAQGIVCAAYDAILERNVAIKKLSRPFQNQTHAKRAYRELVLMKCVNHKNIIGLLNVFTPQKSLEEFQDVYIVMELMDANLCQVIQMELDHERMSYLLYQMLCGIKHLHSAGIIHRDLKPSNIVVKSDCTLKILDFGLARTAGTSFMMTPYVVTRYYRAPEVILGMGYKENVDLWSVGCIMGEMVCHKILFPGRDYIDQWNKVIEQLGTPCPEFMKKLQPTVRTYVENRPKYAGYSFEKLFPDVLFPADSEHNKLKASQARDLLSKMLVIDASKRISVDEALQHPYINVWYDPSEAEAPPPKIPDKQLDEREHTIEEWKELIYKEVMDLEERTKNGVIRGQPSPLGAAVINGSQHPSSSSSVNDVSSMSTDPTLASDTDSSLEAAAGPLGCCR
UniProt P10721, sequence (whole entry, unmodified, looked up): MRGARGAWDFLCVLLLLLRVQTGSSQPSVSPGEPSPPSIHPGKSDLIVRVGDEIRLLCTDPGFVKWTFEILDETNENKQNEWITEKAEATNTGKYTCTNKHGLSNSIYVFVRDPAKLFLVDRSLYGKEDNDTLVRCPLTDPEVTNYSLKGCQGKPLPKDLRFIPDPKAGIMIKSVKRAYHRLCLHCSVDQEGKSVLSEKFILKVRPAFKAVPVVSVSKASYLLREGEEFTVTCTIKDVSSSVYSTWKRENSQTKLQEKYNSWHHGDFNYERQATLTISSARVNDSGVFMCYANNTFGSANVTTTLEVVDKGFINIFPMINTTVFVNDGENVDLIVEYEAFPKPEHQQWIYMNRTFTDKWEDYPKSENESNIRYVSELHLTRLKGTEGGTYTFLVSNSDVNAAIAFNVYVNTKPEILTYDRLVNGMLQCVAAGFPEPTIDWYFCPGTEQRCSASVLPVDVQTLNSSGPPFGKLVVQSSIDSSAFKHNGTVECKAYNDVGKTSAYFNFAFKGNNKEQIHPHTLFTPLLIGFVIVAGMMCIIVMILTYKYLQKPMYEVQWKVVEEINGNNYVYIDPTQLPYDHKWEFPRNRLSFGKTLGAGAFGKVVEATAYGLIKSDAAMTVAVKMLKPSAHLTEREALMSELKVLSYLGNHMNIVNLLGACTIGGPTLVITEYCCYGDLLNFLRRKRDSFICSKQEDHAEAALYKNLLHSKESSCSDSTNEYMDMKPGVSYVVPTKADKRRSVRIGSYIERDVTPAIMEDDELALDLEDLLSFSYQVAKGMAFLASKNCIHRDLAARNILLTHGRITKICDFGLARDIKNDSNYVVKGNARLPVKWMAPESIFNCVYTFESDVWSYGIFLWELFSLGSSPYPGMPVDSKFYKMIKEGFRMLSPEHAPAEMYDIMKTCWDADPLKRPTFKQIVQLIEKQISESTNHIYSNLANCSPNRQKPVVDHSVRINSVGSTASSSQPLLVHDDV

Set 1
Structure (SMILES): CC[C@@]1(c2cccc(C(F)(F)F)c2)C2=C(Nc3n[nH]cc31)[C@H](F)C(C)(C)CC2=O (single isomer, unassigned)
Concentration: 1 µM
target	assay	how to read	remaining binding [%]
BRAF (Homo sapiens, UniProt P15056)	kinase binding, KINOMEscan	relative to: DMSO control	95
PDPK1 (Homo sapiens, UniProt O15530)	kinase binding, KINOMEscan	relative to: DMSO control	100
Tyrosine-protein kinase JAK1, JH2 (JAK1, Homo sapiens, UniProt P23458)	binding, competition with immobilised ligand		100
ACVR1B (Homo sapiens, UniProt P36896)	kinase binding, KINOMEscan	relative to: DMSO control	100
RET (Homo sapiens, UniProt P07949, M918T)	binding, competition with immobilised ligand		99
MAPK8 (Homo sapiens, UniProt P45983)	binding, competition with immobilised ligand		80
MAP4K1 (Homo sapiens, UniProt Q92918)	binding, competition with immobilised ligand		58
MYLK4 (Homo sapiens, UniProt Q86YV6)	kinase binding, KINOMEscan	relative to: DMSO control	96
NEK6 (Homo sapiens, UniProt Q9HC98)	kinase binding, KINOMEscan	relative to: DMSO control	94
CSNK1A1L (Homo sapiens, UniProt Q8N752)	kinase binding, KINOMEscan	relative to: DMSO control	100
AKT2 (Homo sapiens, UniProt P31751)	binding, competition with immobilised ligand		100
KIT (Homo sapiens, UniProt P10721, V559D)	binding, competition with immobilised ligand		100
PIKFYVE (Homo sapiens, UniProt Q9Y2I7)	kinase binding, KINOMEscan	relative to: DMSO control	97

Set 2
SMILES: C[C@@H]1CN(c2ccc(-c3cc(C(=O)NCCOCCOCCOCCOCCNC(=O)/C=C/c4[nH]cc(C(=O)N[C@@H](CC(N)=O)c5ccc(F)c(Cl)c5)c4-c4ccc(Cl)cc4F)ccc3F)cc2NC(=O)c2c[nH]c(=O)cc2C(F)(F)F)C[C@H](C)N1C
Observed: thermal unfolding
Technique: differential scanning fluorimetry
Concentration: 5.5 µM
Reading: higher = more unfolded
WDR5: WD repeat-containing protein 5 (WDR5, Homo sapiens, UniProt P61964)
DCAF1: DDB1- and CUL4-associated factor 1 (DCAF1, Homo sapiens, UniProt Q9Y4B6)
UniProt Q9Y4B6, sequence (whole entry, looked up): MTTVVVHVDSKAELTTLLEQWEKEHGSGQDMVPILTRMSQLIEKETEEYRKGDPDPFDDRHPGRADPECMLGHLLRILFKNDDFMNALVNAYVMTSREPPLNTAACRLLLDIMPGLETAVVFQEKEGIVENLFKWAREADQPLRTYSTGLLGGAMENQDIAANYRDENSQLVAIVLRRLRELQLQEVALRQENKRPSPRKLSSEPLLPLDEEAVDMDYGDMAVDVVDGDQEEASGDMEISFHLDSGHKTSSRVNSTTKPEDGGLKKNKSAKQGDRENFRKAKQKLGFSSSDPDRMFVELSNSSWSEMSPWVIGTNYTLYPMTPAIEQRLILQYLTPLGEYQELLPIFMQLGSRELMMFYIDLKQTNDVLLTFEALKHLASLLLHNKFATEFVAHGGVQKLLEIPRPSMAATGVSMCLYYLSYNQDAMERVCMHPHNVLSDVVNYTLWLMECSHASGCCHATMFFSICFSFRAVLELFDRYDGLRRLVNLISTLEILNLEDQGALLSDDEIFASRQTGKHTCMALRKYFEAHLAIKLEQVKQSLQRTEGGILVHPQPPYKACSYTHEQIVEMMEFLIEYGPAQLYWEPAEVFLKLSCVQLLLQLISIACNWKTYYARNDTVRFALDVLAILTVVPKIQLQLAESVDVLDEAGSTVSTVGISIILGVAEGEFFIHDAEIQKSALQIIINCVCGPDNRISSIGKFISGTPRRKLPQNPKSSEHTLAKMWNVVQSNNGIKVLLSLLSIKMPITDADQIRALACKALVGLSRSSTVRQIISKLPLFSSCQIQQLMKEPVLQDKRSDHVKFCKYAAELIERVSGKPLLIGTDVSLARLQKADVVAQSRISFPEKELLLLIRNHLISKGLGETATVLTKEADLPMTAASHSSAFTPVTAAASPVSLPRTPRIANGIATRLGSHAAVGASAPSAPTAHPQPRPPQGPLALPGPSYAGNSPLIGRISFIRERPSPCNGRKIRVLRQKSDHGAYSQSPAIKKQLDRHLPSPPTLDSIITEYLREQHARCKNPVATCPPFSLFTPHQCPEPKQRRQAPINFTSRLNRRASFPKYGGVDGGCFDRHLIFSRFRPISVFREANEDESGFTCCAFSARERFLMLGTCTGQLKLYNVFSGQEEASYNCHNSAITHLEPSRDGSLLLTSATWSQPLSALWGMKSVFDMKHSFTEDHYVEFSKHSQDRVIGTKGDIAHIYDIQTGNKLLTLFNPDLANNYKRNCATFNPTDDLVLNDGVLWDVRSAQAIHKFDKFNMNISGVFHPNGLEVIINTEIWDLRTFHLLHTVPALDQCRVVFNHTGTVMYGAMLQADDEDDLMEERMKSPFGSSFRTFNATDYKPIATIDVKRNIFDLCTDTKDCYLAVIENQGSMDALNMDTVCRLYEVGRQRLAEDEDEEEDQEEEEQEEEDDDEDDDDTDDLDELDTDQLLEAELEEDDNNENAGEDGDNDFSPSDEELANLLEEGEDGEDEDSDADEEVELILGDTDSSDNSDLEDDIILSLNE
target	conditions	SYPRO Orange fluorescence
WDR5	89.01 °C	52200 a.u.
DCAF1	88.61 °C	36500 a.u.
DCAF1	68.61 °C	57400 a.u.
DCAF1	41.6 °C	12100 a.u.
DCAF1	66.41 °C	59300 a.u.
WDR5	45.4 °C	15400 a.u.
WDR5	87.01 °C	53700 a.u.
DCAF1	49.4 °C	14800 a.u.

Set 3
Structure (SMILES): CN1CCC[C@H]1COc1nc2c(c(N3CCN(C(=O)C(F)(F)F)[C@@H](CC#N)C3)n1)CCN(c1cccc3cccc(Cl)c13)C2
Observed: binding
Action: competitor
Technique: NanoBRET
Cell line: HEK293
KRAS Q61H: GTPase KRas (KRAS, Homo sapiens, UniProt P01116, Q61H)
KRAS Q61L: GTPase KRas (KRAS, Homo sapiens, UniProt P01116, Q61L)
target	conditions	normalized BRET
GTPase KRas (KRAS, Homo sapiens, UniProt P01116, G13D)	1.24 µM	88.2% and 69.5% and 72.8% and 91.9%
KRAS Q61H	3.7 µM	72.3% and 56.6% and 46.7% and 43.9%
KRAS Q61L	5.08 nM	98.3% and 101% and 99.7%
GTPase KRas (KRAS, Homo sapiens, UniProt P01116, Q61R)	3.7 µM	78.7% and 103% and 80.3%
KRAS Q61H	33.3 µM	18.4% and 12.5% and 23.8% and 29.8%
GTPase KRas (KRAS, Homo sapiens, UniProt P01116, G12D)	412 nM	94.1% and 92.1% and 96.2%
KRAS Q61L	15.2 nM	94.8% and 93.7% and 90.1%

Other studies, line by line
Compound	tested on	assay	test system	conditions	endpoint	result
Cc1ncsc1-c1ccc(C2(NC(=O)C3CC(O)CN3C(=O)C(NC(=O)c3ccc(COc4c(-c5c(C)c(F)cc6[nH]ncc56)c(C5CC5)cc5c(N6CC7CC6CN7)nc(OC6CCOCC6)nc45)cc3)C(C)C)CC2)cc1 (stereo not drawn)	AsPC-1	cell growth, CellTiter-Glo			IC50	292 nM and 344 nM and 289 nM
Cc1ncsc1-c1ccc(C(CO)NC(=O)C2CC(O)CN2C(=O)C(NC(=O)c2ccc(COc3c(-c4c(C)c(F)cc5[nH]ncc45)c(C4CC4)cc4c(N5CC6CC5CN6)nc(OC5CCOCC5)nc34)cc2)C(C)C)cc1 (stereo not drawn)	GTPase KRas, GDP-bound (KRAS, Homo sapiens, UniProt P01116, G12D)	SPR, multi-cycle	immobilized KRAS G12D	binary, geometric mean	koff	0.00634 s⁻¹

Excerpt of the above (set 1):
target	assay	how to read	remaining binding [%]
PIKFYVE (Homo sapiens, UniProt Q9Y2I7)	kinase binding, KINOMEscan	relative to: DMSO control	97
CSNK1A1L (Homo sapiens, UniProt Q8N752)	kinase binding, KINOMEscan	relative to: DMSO control	100
MAP4K1 (Homo sapiens, UniProt Q92918)	binding, competition with immobilised ligand		58
MAPK8 (Homo sapiens, UniProt P45983)	binding, competition with immobilised ligand		80
